Measured values pooled from the literature.
Numbered parts are unrelated; each lists some results of a single study.
Chain of UniProt Q9HAZ1 (whole entry, looked up): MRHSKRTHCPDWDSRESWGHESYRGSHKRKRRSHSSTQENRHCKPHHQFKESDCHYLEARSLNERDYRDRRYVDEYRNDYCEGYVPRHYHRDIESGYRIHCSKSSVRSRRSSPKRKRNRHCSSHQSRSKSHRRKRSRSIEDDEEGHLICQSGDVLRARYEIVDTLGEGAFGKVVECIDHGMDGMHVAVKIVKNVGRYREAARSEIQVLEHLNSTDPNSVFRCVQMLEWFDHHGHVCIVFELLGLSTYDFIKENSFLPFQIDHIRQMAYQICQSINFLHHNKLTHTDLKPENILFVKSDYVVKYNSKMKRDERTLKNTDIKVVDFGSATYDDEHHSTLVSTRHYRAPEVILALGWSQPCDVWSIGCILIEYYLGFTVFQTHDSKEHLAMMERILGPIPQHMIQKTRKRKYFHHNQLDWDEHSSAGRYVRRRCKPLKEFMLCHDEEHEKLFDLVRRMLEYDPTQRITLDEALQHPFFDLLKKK
Chain of UniProt Q6P2M8 (whole entry, looked up): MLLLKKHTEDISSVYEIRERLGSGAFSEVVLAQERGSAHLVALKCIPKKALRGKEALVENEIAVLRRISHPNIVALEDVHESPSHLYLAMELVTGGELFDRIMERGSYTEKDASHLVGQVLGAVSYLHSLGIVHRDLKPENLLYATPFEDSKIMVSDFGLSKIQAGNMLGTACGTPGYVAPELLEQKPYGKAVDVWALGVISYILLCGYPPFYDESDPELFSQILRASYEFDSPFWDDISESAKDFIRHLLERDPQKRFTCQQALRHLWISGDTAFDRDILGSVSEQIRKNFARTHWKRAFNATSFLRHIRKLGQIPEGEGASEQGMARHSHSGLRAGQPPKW
Chain of UniProt P06493 (whole entry, looked up): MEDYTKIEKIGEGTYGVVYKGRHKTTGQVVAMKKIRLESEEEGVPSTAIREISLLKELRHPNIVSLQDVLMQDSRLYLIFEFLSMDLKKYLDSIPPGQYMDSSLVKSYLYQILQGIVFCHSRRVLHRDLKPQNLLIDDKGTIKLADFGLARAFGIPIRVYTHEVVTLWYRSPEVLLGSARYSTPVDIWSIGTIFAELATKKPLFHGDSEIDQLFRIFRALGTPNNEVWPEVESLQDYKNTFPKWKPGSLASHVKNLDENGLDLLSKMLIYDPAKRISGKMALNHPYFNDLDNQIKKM
Chain of UniProt Q9UQ88 (whole entry, looked up): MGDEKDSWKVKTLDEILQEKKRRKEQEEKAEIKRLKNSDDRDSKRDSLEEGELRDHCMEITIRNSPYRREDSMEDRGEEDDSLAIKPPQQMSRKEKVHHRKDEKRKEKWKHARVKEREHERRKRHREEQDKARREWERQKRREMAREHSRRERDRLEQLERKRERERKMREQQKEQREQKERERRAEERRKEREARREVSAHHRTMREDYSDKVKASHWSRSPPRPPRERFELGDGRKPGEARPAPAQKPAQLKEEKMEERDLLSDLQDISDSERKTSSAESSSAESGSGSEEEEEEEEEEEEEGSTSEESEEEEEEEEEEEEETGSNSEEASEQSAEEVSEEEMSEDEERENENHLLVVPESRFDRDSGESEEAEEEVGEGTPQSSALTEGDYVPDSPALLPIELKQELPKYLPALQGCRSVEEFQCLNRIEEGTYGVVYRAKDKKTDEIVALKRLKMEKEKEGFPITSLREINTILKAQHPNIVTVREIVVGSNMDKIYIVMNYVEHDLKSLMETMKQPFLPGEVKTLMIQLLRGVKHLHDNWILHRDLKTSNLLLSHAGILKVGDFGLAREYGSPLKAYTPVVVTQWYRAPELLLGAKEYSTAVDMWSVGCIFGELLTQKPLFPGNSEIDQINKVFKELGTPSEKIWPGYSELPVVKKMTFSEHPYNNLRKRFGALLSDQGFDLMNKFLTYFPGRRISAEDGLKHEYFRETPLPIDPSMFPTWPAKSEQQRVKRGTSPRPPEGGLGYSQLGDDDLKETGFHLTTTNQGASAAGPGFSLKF
Chain of UniProt Q9H4B4 (whole entry, looked up): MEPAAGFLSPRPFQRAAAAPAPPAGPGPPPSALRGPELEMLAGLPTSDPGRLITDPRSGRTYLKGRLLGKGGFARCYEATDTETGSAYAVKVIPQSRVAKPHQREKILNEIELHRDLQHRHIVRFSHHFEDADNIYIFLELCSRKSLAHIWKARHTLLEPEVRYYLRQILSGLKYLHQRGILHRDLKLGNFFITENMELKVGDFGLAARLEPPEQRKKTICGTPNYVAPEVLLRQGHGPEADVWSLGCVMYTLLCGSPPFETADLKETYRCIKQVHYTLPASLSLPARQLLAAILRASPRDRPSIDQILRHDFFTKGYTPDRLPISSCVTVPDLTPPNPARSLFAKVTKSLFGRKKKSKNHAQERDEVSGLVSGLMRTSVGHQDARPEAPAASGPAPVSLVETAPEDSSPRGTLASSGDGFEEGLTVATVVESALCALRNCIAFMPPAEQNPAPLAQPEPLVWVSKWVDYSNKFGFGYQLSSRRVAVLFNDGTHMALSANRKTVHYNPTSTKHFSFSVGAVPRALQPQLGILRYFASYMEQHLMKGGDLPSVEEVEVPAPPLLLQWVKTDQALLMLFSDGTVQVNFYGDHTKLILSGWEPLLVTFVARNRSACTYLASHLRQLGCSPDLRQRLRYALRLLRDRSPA
Chain of UniProt P31751 (whole entry, looked up): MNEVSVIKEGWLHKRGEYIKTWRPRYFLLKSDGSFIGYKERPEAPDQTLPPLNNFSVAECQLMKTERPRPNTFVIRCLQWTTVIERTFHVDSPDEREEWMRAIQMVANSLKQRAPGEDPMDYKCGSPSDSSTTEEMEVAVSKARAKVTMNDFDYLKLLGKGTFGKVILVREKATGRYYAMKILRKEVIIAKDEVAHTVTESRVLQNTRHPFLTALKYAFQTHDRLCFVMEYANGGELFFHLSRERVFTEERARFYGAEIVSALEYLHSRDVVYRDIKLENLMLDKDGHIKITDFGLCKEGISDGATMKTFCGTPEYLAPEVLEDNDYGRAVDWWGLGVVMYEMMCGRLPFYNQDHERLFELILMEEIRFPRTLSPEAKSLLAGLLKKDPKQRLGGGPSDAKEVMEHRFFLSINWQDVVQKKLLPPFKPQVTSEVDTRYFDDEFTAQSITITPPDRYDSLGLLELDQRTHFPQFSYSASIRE
Chain of UniProt Q16539 (whole entry, looked up): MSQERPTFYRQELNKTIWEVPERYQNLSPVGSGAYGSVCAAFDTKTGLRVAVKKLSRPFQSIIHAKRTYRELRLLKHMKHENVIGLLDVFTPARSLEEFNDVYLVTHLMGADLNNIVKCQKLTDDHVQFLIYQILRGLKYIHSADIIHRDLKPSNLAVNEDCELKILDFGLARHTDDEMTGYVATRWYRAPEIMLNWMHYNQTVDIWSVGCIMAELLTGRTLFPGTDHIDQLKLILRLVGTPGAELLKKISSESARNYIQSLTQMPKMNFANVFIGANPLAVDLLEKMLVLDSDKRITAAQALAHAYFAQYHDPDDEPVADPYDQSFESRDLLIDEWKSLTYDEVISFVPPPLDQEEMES
Chain of UniProt Q16566 (whole entry, looked up): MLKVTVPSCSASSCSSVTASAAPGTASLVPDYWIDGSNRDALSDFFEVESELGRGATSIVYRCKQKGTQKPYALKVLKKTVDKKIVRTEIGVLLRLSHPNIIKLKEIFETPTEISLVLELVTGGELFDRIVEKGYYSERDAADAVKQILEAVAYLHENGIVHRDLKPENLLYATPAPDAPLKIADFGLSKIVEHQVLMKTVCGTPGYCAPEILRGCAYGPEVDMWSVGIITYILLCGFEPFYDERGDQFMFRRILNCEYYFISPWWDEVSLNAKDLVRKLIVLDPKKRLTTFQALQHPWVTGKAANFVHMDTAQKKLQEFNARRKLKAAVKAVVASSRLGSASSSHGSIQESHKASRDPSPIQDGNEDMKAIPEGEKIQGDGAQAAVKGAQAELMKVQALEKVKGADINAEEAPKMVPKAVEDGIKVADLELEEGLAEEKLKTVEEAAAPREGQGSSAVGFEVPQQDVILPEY

Series 1
Target: His6 tag
Technique: AlphaScreen counter screen
Tested at: concentration not given
The inhibition of Cc1ccc(-c2csc3nc[nH]c(=O)c23)cc1 is reported as 7.05%.
With COc1ccc(C(=O)c2sc(Nc3cccc(C(F)(F)F)c3)nc2N)cc1 the inhibition was 5.6%.
For O=C(CSc1nnc(-c2ccccc2O)n1-c1ccccc1)Nc1nccs1, the inhibition was -1.7%.
With Cn1c(C(C#N)=Cc2ccncc2)nc2ccccc21 the inhibition was 1.05%.
CC(=O)CCCCn1c(=O)c2c(ncn2C)n(C)c1=O gave an inhibition of 6%.
The inhibition of O=C(CSc1ccc2nnc(-c3cccc(F)c3)n2n1)Nc1nccs1 is reported as 6.9%.
COc1ccc(C(C#N)=Cc2ccccn2)cc1OC has an inhibition of -43.7%.
CCC(CO)Nc1ccc2ncc(-c3ccc(F)c(Cl)c3)n2n1 (stereo not drawn) gave an inhibition of 0%.
The inhibition of CC[C@H](CO)Nc1nc(NCc2ccccc2)c2ncn(C(C)C)c2n1 is reported as 18.9%.
The inhibition of Ic1cccc(CSc2nnc(-c3ccncc3)o2)c1 is reported as -2.3%.

Series 2
Cell line: mouse MPNST tumor cells
Technique: high-content nuclear imaging
Refers to: cell number
Tested at: 10 µM
Time: 12 h
Notes: mean of 2 replicates
Relative to: plate mean
Direction: higher = more cells
For CCOC(=O)c1ncc2[nH]c3cccc(OC(C)C)c3c2c1C, the nuclei count was 3.03 z-score.
CS(=O)(=O)c1ccc([C@@H](O)[C@@H](CO)NC(=O)C(Cl)Cl)cc1 has a nuclei count of 2.68 z-score.
O=C(COc1cccc2c(=O)[nH]ccc12)c1ccccc1 has a nuclei count of 3.07 z-score.
With CCC(CC)(NC(=O)C(C)C)C(=O)N[C@@H](CCCN=C(N)N)C(=O)NC1(C(=O)NC(c2ccc(F)cc2)c2ccc(F)cc2)CCCC1 the nuclei count was -1.3 z-score.
For Fc1ccc(Cl)cc1-c1nc(Nc2ccncc2)c2nccnc2n1, the nuclei count was -0.465 z-score.
COc1ccc2c(NC(=O)Nc3cccc(C(F)(F)F)n3)ccnc2c1 has a nuclei count of -1.49 z-score.
With COC(=O)C1=C(C)NC(C)=C([N+](=O)[O-])[C@H]1c1ccccc1C(F)(F)F the nuclei count was 0.828 z-score.
The nuclei count of CCCCC(CC)CN1CN(CC(CC)CCCC)CC(C)(N)C1 (stereo not drawn) is reported as -0.279 z-score.

Series 3
Structure (SMILES): CCS(=O)(=O)c1cc2cc(C[C@](O)(CC(C)(C)c3ccc(F)cc3C(N)=O)C(F)(F)F)[nH]c2cn1
Observed: cell-free assay
Technique: competition with immobilised ligand
Tested at: 1 µM
For FLT3 (Homo sapiens, UniProt P36888, ITD): remaining binding read 91%.
For MAPK14 (Homo sapiens, UniProt Q16539): remaining binding read 100%.
PRKCI (Homo sapiens, UniProt P41743) — remaining binding: 100%.
The remaining binding was 95% (CLK4 (Homo sapiens, UniProt Q9HAZ1)).
For SIK2 (Homo sapiens, UniProt Q9H0K1): remaining binding read 100%.
The remaining binding was 100% (MET (Homo sapiens, UniProt P08581, M1250T)).
The remaining binding was 100% (CDK11A (Homo sapiens, UniProt Q9UQ88)).
It gave 83% for remaining binding (SRPK1 (Homo sapiens, UniProt Q96SB4)).

Series 4
SMILES: COc1cc2c(cc1OC)-c1[nH]nc(Nc3cccc(F)c3)c1C2
Observed: enzyme activity
Mode: inhibitor
Tested at: 0.5 µM
Relative to: control
The remaining activity was 88.2% (DCLK2 (Homo sapiens, UniProt Q8N568)).
The remaining activity was 94.9% (PLK3 (Homo sapiens, UniProt Q9H4B4)).
It gave 92.6% for remaining activity (Cyclin-dependent kinase 1, with cyclin A (CDK1, Homo sapiens, UniProt P06493)).
For AKT2 (Homo sapiens, UniProt P31751): remaining activity read 95.3%.
MINK1 (Homo sapiens, UniProt Q8N4C8) — remaining activity: 83.6%.
The remaining activity was 99.8% (RPS6KA4 (Homo sapiens, UniProt O75676)).
For CAMK4 (Homo sapiens, UniProt Q16566): remaining activity read 106%.
For TXK (Homo sapiens, UniProt P42681): remaining activity read 60.6%.
It gave 98.7% for remaining activity (KDR (Homo sapiens, UniProt P35968)).
The remaining activity was 87.5% (ROCK1 (Homo sapiens, UniProt Q13464)).
CLK4 (Homo sapiens, UniProt Q9HAZ1) — remaining activity: 77.7%.
It gave 103% for remaining activity (TLK2 (Homo sapiens, UniProt Q86UE8)).
It gave 98% for remaining activity (PNCK (Homo sapiens, UniProt Q6P2M8)).
